Measured values gathered from unrelated publications.
Numbered parts are unrelated; each lists some results of a single study. Several values in a cell are separate wells, animals, samples, runs or records. pEC50: −log10 of the molar value.

Study 1 — effect on: enzyme activity; mode: inhibitor; tested at: 0.5 µM; baseline: control
Target: Tyrosine-protein kinase Yes (YES1, Homo sapiens, UniProt P07947)
Chain of UniProt P07947 (whole entry, looked up): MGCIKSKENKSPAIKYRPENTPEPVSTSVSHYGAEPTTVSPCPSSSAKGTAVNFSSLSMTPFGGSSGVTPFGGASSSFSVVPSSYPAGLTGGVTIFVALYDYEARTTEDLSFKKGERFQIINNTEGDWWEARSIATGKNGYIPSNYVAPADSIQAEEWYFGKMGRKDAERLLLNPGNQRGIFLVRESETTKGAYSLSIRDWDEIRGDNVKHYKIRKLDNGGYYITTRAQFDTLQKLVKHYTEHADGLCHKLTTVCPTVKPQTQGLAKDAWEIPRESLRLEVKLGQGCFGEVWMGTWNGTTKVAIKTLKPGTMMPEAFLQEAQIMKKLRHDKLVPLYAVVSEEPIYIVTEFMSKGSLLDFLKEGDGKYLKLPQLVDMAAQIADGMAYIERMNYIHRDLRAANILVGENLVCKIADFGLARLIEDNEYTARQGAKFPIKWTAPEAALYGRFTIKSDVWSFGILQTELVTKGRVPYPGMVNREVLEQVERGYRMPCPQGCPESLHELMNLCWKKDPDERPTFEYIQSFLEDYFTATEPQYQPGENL
For `NC(=O)c1cccc(-c2cc(Nc3ccc(OC(F)(F)F)cc3)ncn2)c1`, the remaining activity was 87.4%.
`FC(F)(F)c1ccc(/C=C/c2nc(COc3ccc(CCCCn4ccnn4)cc3)co2)cc1` gave a remaining activity of 85%.
For `N#C/C(=C(/N)SC1C=CC=CC1)c1cccc(C(O)c2ccncc2)c1` (stereo not shown), the remaining activity was 97.2%.
With `CNc1cc2c(Nc3cccc(Br)c3)ncnc2cn1` the remaining activity was 74.7%.
`N#CC(c1ccnc(NCCc2cccnc2)n1)c1nc2ccccc2s1` (stereo not shown) gave a remaining activity of 89.1%.
`CCN(CC)CCCCN1c2ccccc2Oc2ccc(Cl)cc21` gave a remaining activity of 88.5%.
The remaining activity of `Clc1ccc(Nc2nnc(Cc3ccncc3)c3ccccc23)cc1` is reported as 93%.
For `CCCCc1c(-c2ccc(O)cc2)[nH]c2nccnc12`, the remaining activity was 46.5%.
`COc1cc2c(N3CCN(C(=O)Nc4ccc(OC(C)C)cc4)CC3)ncnc2cc1OCCCN1CCCCC1` has a remaining activity of 86.6%.
`C[C@@H](N)[C@H]1CC[C@H](C(=O)Nc2ccncc2)CC1` has a remaining activity of 98.3%.
The remaining activity of `O=C(O)/C=C/c1cc(Br)c(Br)c(Br)c1Br` is reported as 96.9%.
With `CC(C)n1cnc2c(Nc3cccc(Cl)c3)nc(NCCO)nc21` the remaining activity was 33.7%.
The remaining activity of `CC(C)(C)c1nc2c3cc[nH]c(=O)c3c3cc(F)ccc3c2[nH]1` is reported as 76.1%.

Study 2 — technique: TR-FRET
Target: UBC/CDC34 (Homo sapiens, UniProt P0CG48+P49427)
Chain of UniProt P49427 (whole entry, looked up): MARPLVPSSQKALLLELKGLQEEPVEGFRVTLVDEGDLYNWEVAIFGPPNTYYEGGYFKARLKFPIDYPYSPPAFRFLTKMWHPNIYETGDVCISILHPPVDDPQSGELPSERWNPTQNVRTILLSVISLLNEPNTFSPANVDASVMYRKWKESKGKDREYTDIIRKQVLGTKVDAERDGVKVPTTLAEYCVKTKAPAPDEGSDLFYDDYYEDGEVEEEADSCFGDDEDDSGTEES
With `CCOC(=O)C1(Cc2ccc(-c3cc(Cl)cc(Cl)c3)cc2)CCN(C(=O)CNC)CC1` the pEC50 was 5.20.
For `COCC(=O)N1CCC(Cc2ccc(-c3cc(Cl)cc(Cl)c3)cc2)(C(=O)NC2CCOCC2)CC1`, the pEC50 was < 4.00.
The pEC50 of `COCC(=O)N1CCC(Cc2ccc(-c3cc(Cl)cc(Cl)c3)cc2)(C(=O)NC2COC2)CC1` is reported as < 4.00.
`COCC(=O)N1CCC(Cc2ccc(-c3cc(Cl)cc(Cl)c3)cc2)(C(=O)NC[C@@H](O)CO)CC1` has a pEC50 of < 4.00.
`CCOC(=O)C1(Cc2ccc(-c3cc(Cl)cc(Cl)c3)cc2)CCN(C(=O)c2ccno2)CC1` has a pEC50 of < 4.00.

Study 3 — species: human; matrix: microsomes or S9; tested at: 2 µM; time: 0.5 h
`COc1ccc(/C=N/n2cnnc2)cc1Br` gave a remaining compound of 48.1%.
`Cc1nc(-c2ccccc2)nc2sc3c(=O)[nH]cnc3c12` has a remaining compound of 24.1%.
With `O=C(CCc1ccccc1Cl)NCc1[nH]ncc1Br` the remaining compound was 80%.
`Cc1nc2ccccc2c(=O)n1-c1ccc(Cl)c(O[C@H]2CCN(C)C2)c1` gave a remaining compound of 92.5%.
With `COc1cccc(NC(=O)c2c(C)nc(C)c(C(=O)O)c2-c2ccc(Cl)cc2)c1` the remaining compound was 17.4%.
`CCOc1ccc(-c2nnc3c4cc(OC)c(OC)cc4n(Cc4ccc(Cl)cc4)cc2-3)cc1` gave a remaining compound of > 99.9%.

Further values, each from its own experiment
With `CN(C)[C@@H]1CCN(c2cc(-c3ccccc3)nc3ccnn23)C1` the viability was 110% (normal-adjacent organoid sample E; CellTiter-Glo; 1 µM, replicate mean; baseline: DMSO).
Under “patients with CRP increased”, `CC(C)n1cnc(-c2ccc(F)cc2)c1-c1ncc(C(=O)Nc2ccc(N3CCN(C)CC3)cc2)[nH]1` is recorded as 1% (phase 2a trial; idiopathic pulmonary fibrosis patients; 30 mg once daily, adverse event grade 1).
The viability of `COc1ccc2c(c1)O[C@@H](c1ccc(OC)c(OC)c1)C[C@H]2NC(=O)C1(c2ccc3c(c2)OC(F)(F)O3)CC1` (single isomer, unassigned) is reported as 87.1% and 84.4% (sample C colorectal tumour organoid; 1 µM; baseline: DMSO).
For `CNC(=O)c1cc(C(=O)N[C@H]2[C@@H]3COC[C@@H]32)cc2c1O[C@H](CF)[C@H]2c1ccccc1`, the viability was 110% (normal organoid sample G; CellTiter-Glo; human, normal-adjacent epithelium; 1 µM; baseline: DMSO).

For quick reference, copied from above (further values, each from its own experiment):
Under “patients with CRP increased”, `CC(C)n1cnc(-c2ccc(F)cc2)c1-c1ncc(C(=O)Nc2ccc(N3CCN(C)CC3)cc2)[nH]1` is recorded as 1% (phase 2a trial; idiopathic pulmonary fibrosis patients; 30 mg once daily, adverse event grade 1).
For `CNC(=O)c1cc(C(=O)N[C@H]2[C@@H]3COC[C@@H]32)cc2c1O[C@H](CF)[C@H]2c1ccccc1`, the viability was 110% (normal organoid sample G; CellTiter-Glo; human, normal-adjacent epithelium; 1 µM; baseline: DMSO).
The viability of `COc1ccc2c(c1)O[C@@H](c1ccc(OC)c(OC)c1)C[C@H]2NC(=O)C1(c2ccc3c(c2)OC(F)(F)O3)CC1` (single isomer, unassigned) is reported as 87.1% and 84.4% (sample C colorectal tumour organoid; 1 µM; baseline: DMSO).
With `CN(C)[C@@H]1CCN(c2cc(-c3ccccc3)nc3ccnn23)C1` the viability was 110% (normal-adjacent organoid sample E; CellTiter-Glo; 1 µM, replicate mean; baseline: DMSO).
